Results pooled from the literature.
Compare with care: the assays were run in different laboratories.
Cell line: MDCK-MDR1

Structure (SMILES)	setting	scale	quantity	result
Cc1c(Br)cc(NC(=O)NS(=O)(=O)O)cc1Br	MDR1 inhibited	–	Papp	0.057 ×10⁻⁶ cm/s
O=C(NC1CCN(c2ncnc3c2nc(-c2ccccc2Cl)n3-c2ccc(Cl)cc2)CC1)c1ccc(F)cc1F	10 µM, 1 h, pH 7.4, 37 °C	–	permeability A to B	< 0.1%
O=C(Nc1nc2ccccc2s1)C(c1ccccc1)S(=O)(=O)O (stereo not shown)	MDR1 inhibited	–	Papp	0.011 ×10⁻⁶ cm/s
CO[C@H]1C[C@@H]2CC[C@@H](C)[C@@](O)(O2)C(=O)C(=O)N2CCCC[C@H]2C(=O)O[C@H]([C@H](C)C[C@@H]2CC[C@@H](O)[C@H](OC)C2)CC(=O)[C@H](C)/C=C(\C)[C@@H](O)[C@@H](OC)C(=O)[C@H](C)C[C@H](C)/C=C/C=C/C=C/1C	2 h, with: 0.25% BSA	–	Papp	0.48 ×10⁻⁶ cm/s
Cc1c(Br)cc(NC(=O)C(c2ccccc2)S(=O)(=O)O)cc1Br (stereo not shown)	MDR1 inhibited	–	Papp	0.55 ×10⁻⁶ cm/s
Clc1ccc(-n2c(-c3ccccc3Cl)nc3c(N4CCC(Nc5ccccc5)CC4)ncnc32)cc1	10 µM, 1 h, pH 7.4, 37 °C	–	permeability A to B	0%
C#C[C@]1(O)CC[C@H]2[C@@H]3CCc4cc(O)ccc4[C@H]3CC[C@@]21C	pH 7.4	–	Papp	64.5 ×10⁻⁶ cm/s
CCCC#Cc1ccc([C@@H](CO)C(=O)N[C@H](C)c2ccccc2)cc1	–	relative to: B-to-A over A-to-B	efflux ratio	1.1
CC(C(=O)NC1CCN(c2ncnc3c2nc(-c2ccccc2Cl)n3-c2ccc(Cl)cc2)CC1)c1ccccc1 (stereo not shown)	10 µM, 1 h, pH 7.4, 37 °C	–	permeability A to B	< 0.1%
CC(C)CN(C[C@@H](O)[C@H](Cc1ccccc1)NC(=O)O[C@H]1CCOC1)S(=O)(=O)c1ccc(N)cc1	2 h, with: 0.25% BSA	–	Papp	2.73 ×10⁻⁶ cm/s
